Measurements from different studies.
Protocols differ between the studies behind these lines. ± gives the spread as reported.
Low molecular weight phosphotyrosine protein phosphatase isoform A: Low molecular weight phosphotyrosine protein phosphatase, isoform A (Mus musculus, UniProt Q9D358)
Serotonin N-acetyltransferase: Serotonin N-acetyltransferase (Ovis aries, UniProt Q29495)

For `Cc1ccc(NC(=S)N/N=C/C=C/c2ccc(F)cc2)cc1`, the IC50 was 10.2 ± 0.4 µM (Urease subunit alpha (Sporosarcina pasteurii, UniProt P41020); enzyme activity, indophenol method).
With `COc1nc(N)nc(N)c1OCCCOc1ccccc1CCC(=O)O` the IC50 was > 5 µM (uncharacterized protein (Mycobacteroides abscessus, UniProt B1MD46); enzyme activity, inhibitor, NADPH fluorescence; added: 1 nM enzyme).
`Fc1cccc(-c2cc(NCCCN3CCCCC3)c3ccccc3n2)c1` gave an IC50 of 1.84 µM (Low molecular weight phosphotyrosine protein phosphatase isoform A; enzyme activity, inhibitor; added: OMFP substrate).
The IC50 of `O=C1NC(=S)S/C1=C1\C(=O)Nc2ccccc21` is reported as > 60 µM (Serotonin N-acetyltransferase; inhibitor, stopped-flow UV; added: serotonin 100 µM, acetyl-CoA 100 µM).
`CC(C)NC(=O)COc1cccc(-c2nc(Nc3ccc4[nH]ncc4c3)c3ccccc3n2)c1` has an IC50 of > 10 µM (UDP-glucuronosyltransferase 1A4 (UGT1A4, Homo sapiens, UniProt P22310); enzyme activity, inhibitor; recombinant UGT microsomes; added: diclofenac).
`O=C(O)CCCCCN1C(=O)/C(=C2/C(=O)N(Cc3ccc(F)cc3)c3ccccc32)SC1=S` gave an IC50 of 27 ± 22 µM (Serotonin N-acetyltransferase; inhibitor, stopped-flow UV; added: serotonin 100 µM, acetyl-CoA 100 µM).
`Fc1ccccc1-c1cc(NCCCN2CCCCC2)c2ccccc2n1` has an IC50 of 29 µM (Low molecular weight phosphotyrosine protein phosphatase isoform A; enzyme activity, inhibitor; added: OMFP substrate).
The IC50 of `CN1CCN(c2ccc(Nc3ncc4cc(C#N)c(=O)n(C5CCCC5)c4n3)cc2)CC1` is reported as 1.8 µM (Phosphorylase b kinase gamma catalytic chain, skeletal muscle/heart isoform (PHKG1, Homo sapiens, UniProt Q16816)).
For `O=C(O)c1cc(O)c2c(c1)C(=O)c1cccc(O)c1C2=O`, the cell viability was 16.4 ± 2.2% (HepaRG co-cultured with HK-2; MTT; 66.67 µM, 48 h; reference: untreated control).
`CC[C@@H]1[C@H](F)C(=O)N[C@@H]1COc1nccc2cc(C(N)=O)c(OC)cc12` has an IC50 of > 5 µM (Ribosomal protein S6 kinase alpha-3 (RPS6KA3, Homo sapiens, UniProt P51812); ATP-site binding, ActivX kinase profiling; THP-1 cell lysate; RSK2 domain 2 Lys2 probe peptide).
For `COCCOCc1ccc(-c2cc3onc(-c4ccccc4)c3c(=O)n2C)cc1`, the metabolic activity was 0.98 ± 0.04 (COS-7; WST-8; 10 µM, 24 h, 0.1% DMSO, unit not given; reference: vehicle control).
`COc1c(O[C@@H]2O[C@H](CO)[C@@H](O)[C@H](O)[C@H]2O)c(C)cc2c1C(=O)c1c(O)cccc1C2=O` gave a cell viability of 71.7 ± 7.66% (HepaRG co-cultured with HK-2; MTT; 33.33 µM, 48 h; reference: untreated control).
`COCC(=O)N1CCC[C@H](C(=O)NCc2nc(-c3ccc(C#N)cc3)cs2)C1` gave an IC50 of > 30 µM (PSMB1/PSMB8/PSMB3 (Homo sapiens, UniProt P20618+P28062+P49720)).
For `CN1CC2c3ccccc3Oc3ccc(Cl)cc3C2C1` (stereo not drawn), the EC50 was 0.0248 µM (5-hydroxytryptamine receptor 1A (HTR1A, Homo sapiens, UniProt P08908, K345A/K405A); agonist).
`Cn1cc(-c2ccc(-c3cncc(Cl)c3N3CCC4(CCNC4=O)CC3)cc2)cn1` — result for “log2 fold change”: -1.97 (COLO 205; gene expression, microarray, measured: WWTR1 mRNA; concentration not given, 2 h; reference: untreated cells).

Some of these lines once more:
`Fc1ccccc1-c1cc(NCCCN2CCCCC2)c2ccccc2n1` has an IC50 of 29 µM (Low molecular weight phosphotyrosine protein phosphatase isoform A; enzyme activity, inhibitor; added: OMFP substrate).
The IC50 of `CN1CCN(c2ccc(Nc3ncc4cc(C#N)c(=O)n(C5CCCC5)c4n3)cc2)CC1` is reported as 1.8 µM (Phosphorylase b kinase gamma catalytic chain, skeletal muscle/heart isoform (PHKG1, Homo sapiens, UniProt Q16816)).
